Published values from different studies.
Every numbered part comes from another study and shows a few of its results, in no order. Several values in a cell are separate wells, animals, samples, runs or records.
Chain of UniProt Q08881 (whole entry, looked up): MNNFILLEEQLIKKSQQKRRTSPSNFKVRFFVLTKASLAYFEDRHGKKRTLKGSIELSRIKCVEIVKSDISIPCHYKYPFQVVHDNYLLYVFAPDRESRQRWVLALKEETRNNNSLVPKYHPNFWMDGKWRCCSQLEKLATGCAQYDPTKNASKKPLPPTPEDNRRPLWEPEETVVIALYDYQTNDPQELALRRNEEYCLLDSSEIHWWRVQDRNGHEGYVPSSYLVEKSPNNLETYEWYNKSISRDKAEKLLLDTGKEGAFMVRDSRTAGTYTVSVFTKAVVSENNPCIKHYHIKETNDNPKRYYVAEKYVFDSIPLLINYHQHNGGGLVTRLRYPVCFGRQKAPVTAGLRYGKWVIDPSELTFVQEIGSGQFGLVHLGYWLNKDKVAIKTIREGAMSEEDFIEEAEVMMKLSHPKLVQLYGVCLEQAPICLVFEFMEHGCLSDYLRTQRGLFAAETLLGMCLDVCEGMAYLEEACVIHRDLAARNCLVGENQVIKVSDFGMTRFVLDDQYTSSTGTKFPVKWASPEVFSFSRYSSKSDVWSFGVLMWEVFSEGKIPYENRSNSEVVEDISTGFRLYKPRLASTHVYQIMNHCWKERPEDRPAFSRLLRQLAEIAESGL
Chain of UniProt P78362 (whole entry, looked up): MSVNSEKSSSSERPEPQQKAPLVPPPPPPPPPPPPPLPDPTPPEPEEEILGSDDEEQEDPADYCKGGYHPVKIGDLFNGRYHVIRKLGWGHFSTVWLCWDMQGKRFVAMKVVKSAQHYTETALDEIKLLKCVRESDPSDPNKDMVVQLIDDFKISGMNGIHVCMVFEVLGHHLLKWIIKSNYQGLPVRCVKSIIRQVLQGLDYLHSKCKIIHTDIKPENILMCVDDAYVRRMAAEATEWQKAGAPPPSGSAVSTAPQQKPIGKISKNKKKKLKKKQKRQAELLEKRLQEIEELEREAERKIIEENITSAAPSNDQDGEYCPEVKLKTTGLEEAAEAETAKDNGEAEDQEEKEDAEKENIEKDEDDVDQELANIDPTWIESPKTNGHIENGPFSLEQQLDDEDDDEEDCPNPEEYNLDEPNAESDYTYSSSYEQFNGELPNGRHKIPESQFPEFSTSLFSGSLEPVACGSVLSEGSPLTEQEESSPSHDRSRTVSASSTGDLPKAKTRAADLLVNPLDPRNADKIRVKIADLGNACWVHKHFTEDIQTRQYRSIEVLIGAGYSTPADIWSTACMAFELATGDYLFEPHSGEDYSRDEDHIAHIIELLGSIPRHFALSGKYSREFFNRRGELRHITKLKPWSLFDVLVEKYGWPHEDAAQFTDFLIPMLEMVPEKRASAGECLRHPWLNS
Chain of UniProt P54646 (whole entry, looked up): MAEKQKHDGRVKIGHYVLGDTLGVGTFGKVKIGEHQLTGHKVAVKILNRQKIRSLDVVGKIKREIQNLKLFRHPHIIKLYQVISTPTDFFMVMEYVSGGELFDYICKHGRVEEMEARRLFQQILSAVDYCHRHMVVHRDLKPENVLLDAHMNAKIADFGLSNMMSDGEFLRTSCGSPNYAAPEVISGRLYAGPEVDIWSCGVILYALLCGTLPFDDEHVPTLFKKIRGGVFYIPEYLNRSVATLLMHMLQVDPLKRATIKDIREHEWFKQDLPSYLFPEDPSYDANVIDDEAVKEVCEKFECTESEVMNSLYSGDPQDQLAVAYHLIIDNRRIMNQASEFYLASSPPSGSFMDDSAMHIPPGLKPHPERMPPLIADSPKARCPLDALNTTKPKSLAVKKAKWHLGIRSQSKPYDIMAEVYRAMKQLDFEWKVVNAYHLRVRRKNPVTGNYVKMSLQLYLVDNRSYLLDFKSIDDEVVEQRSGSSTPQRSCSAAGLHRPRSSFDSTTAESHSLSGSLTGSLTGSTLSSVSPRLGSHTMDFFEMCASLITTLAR
Chain of UniProt O00506 (whole entry, looked up): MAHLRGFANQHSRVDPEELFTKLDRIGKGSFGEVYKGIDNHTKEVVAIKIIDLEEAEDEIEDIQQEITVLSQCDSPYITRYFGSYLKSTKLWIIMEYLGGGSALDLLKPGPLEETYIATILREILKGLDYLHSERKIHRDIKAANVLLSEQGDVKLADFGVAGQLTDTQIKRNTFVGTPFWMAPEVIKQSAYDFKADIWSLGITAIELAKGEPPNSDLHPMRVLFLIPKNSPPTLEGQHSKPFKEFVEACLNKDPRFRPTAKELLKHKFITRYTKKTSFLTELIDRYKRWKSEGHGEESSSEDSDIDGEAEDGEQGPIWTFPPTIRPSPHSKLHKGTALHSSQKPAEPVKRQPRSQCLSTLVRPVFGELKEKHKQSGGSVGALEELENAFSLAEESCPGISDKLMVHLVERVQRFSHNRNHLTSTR
Chain of UniProt P50613 (whole entry, looked up): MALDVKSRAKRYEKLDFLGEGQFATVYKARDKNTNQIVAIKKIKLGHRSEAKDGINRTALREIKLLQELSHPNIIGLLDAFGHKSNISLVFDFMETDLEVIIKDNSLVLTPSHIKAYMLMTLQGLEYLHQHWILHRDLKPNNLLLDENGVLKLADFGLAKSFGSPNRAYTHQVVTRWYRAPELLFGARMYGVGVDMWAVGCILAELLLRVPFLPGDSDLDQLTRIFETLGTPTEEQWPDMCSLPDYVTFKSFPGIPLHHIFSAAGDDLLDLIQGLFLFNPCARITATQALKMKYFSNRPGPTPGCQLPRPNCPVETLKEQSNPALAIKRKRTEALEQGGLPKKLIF
Chain of UniProt P27037 (whole entry, looked up): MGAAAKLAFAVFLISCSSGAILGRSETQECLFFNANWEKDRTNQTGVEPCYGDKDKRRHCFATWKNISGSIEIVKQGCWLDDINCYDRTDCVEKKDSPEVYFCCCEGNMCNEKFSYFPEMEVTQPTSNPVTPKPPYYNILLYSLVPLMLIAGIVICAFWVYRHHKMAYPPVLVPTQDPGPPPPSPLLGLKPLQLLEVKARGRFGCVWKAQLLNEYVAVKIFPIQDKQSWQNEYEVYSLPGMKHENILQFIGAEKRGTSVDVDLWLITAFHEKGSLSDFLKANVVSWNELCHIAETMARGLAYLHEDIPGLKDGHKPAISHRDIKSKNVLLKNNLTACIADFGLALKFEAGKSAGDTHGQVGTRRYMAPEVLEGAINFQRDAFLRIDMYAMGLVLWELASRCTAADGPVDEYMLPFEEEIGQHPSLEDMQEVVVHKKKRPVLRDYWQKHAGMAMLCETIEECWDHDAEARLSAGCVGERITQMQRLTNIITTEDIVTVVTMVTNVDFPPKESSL
Chain of UniProt Q96PN8 (whole entry, looked up): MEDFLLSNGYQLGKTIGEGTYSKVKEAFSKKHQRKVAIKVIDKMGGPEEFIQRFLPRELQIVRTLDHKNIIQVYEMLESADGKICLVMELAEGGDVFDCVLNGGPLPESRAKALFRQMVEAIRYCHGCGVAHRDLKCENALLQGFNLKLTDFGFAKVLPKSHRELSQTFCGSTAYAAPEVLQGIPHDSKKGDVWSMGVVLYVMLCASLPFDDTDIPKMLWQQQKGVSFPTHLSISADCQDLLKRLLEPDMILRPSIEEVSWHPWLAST

Series 1 — read-out: thermal unfolding; technique: differential scanning fluorimetry; tested at: 5.5 µM; direction: higher = more unfolded
Compound: C[C@@H]1CN(c2ccc(-c3cc(C(=O)NCCOCCOCCOCCOCCNC(=O)Cn4cc(-c5[nH]cc(C(=O)N[C@@H](CC(N)=O)c6ccc(F)c(Cl)c6)c5-c5ccc(Cl)cc5F)cn4)ccc3F)cc2NC(=O)c2c[nH]c(=O)cc2C(F)(F)F)C[C@H](C)N1C
DCAF1: DDB1- and CUL4-associated factor 1 (DCAF1, Homo sapiens, UniProt Q9Y4B6)
Chain of UniProt Q9Y4B6 (whole entry, looked up): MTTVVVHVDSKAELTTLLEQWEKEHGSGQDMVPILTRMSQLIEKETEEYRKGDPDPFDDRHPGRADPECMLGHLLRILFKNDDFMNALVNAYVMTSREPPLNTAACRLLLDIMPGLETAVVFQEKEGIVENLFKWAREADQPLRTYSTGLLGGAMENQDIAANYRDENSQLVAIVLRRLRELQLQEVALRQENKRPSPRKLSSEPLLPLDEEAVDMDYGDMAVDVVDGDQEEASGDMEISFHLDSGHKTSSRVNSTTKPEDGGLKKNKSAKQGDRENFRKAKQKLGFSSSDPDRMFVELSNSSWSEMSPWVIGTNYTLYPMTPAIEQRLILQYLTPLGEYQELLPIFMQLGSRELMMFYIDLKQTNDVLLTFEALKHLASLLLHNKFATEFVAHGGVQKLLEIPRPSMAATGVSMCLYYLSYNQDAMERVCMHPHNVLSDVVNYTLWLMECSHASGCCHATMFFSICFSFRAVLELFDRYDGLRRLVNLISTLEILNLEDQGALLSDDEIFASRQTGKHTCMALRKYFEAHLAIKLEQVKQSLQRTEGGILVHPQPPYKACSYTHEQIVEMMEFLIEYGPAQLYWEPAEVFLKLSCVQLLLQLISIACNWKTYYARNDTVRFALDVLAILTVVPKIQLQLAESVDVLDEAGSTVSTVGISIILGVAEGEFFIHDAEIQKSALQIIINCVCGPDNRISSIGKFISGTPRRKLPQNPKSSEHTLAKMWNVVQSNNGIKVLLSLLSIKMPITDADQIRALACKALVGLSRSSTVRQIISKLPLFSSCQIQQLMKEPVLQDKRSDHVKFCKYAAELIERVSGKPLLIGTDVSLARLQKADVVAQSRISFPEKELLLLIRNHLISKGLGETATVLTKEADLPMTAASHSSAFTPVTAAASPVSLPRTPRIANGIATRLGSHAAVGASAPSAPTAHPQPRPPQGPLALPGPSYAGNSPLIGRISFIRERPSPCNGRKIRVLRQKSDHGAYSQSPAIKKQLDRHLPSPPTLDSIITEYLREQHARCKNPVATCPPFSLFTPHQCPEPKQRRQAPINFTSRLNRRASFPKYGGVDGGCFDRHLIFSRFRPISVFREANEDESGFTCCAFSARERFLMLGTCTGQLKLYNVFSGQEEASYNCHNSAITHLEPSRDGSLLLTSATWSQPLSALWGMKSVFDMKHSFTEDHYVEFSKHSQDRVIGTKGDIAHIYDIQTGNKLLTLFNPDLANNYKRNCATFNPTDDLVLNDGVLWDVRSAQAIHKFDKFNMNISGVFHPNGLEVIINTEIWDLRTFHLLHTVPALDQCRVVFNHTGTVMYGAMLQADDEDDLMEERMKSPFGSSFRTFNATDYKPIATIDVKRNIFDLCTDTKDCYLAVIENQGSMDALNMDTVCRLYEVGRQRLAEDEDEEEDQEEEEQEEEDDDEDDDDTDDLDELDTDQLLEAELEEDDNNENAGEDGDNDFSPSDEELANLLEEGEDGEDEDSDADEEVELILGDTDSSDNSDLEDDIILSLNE
WDR5: WD repeat-containing protein 5 (WDR5, Homo sapiens, UniProt P61964)
| target | temperature | SYPRO Orange fluorescence [a.u.] |
| --- | --- | --- |
| DCAF1 | 57.81 °C | 28100 |
| WDR5 | 65.81 °C | 7350 |
| DCAF1 | 69.81 °C | 54700 |
| WDR5 | 37.2 °C | 14400 |
| WDR5 | 55.81 °C | 13100 |
| DCAF1 | 49.2 °C | 14000 |
| DCAF1 | 50.2 °C | 14700 |
| WDR5 | 84.21 °C | 37400 |
| DCAF1 | 93.61 °C | 31400 |
| DCAF1 | 27.2 °C | 7730 |
| DCAF1 | 68.01 °C | 56100 |

Series 2 — tested at: 1 µM
Compound: CC[C@@]1(c2cccc(C(F)(F)F)c2)C2=C(Nc3n[nH]cc31)[C@H](F)C(C)(C)CC2=O (single isomer, unassigned)
| target | read-out | technique | relative to | remaining binding |
| --- | --- | --- | --- | --- |
| Phosphatidylinositol 4,5-bisphosphate 3-kinase catalytic subunit alpha isoform (PIK3CA, Homo sapiens, UniProt P42336, C420R) | kinase binding | KINOMEscan | DMSO control | 78% |
| Myosin light chain kinase (MYLK3, Homo sapiens, UniProt Q32MK0) | kinase binding | KINOMEscan | DMSO control | 100% |
| Fibroblast growth factor receptor 2 (FGFR2, Homo sapiens, UniProt P21802) | kinase binding | KINOMEscan | DMSO control | 100% |
| Protein kinase C delta type (PRKCD, Homo sapiens, UniProt Q05655) | kinase binding | KINOMEscan | DMSO control | 100% |
| Activin receptor type-2A (ACVR2A, Homo sapiens, UniProt P27037) | binding | competition with immobilised ligand | – | 91% |
| Tyrosine-protein kinase ITK/TSK (ITK, Homo sapiens, UniProt Q08881) | kinase binding | KINOMEscan | DMSO control | 100% |
| Testis-specific serine/threonine-protein kinase 3 (TSSK3, Homo sapiens, UniProt Q96PN8) | kinase binding | KINOMEscan | DMSO control | 100% |
| Mitogen-activated protein kinase kinase kinase 7 (MAP3K7, Homo sapiens, UniProt O43318) | binding | competition with immobilised ligand | – | 65% |
| Calcium/calmodulin-dependent protein kinase type II subunit alpha (CAMK2A, Homo sapiens, UniProt Q9UQM7) | binding | competition with immobilised ligand | – | 88% |
| Mitogen-activated protein kinase kinase kinase 10 (MAP3K10, Homo sapiens, UniProt Q02779) | kinase binding | KINOMEscan | DMSO control | 91% |
| 5'-AMP-activated protein kinase catalytic subunit alpha-2 (PRKAA2, Homo sapiens, UniProt P54646) | kinase binding | KINOMEscan | DMSO control | 100% |
| Dual specificity protein kinase CLK3 (CLK3, Homo sapiens, UniProt P49761) | kinase binding | KINOMEscan | DMSO control | 94% |
| Mitogen-activated protein kinase kinase kinase kinase 4 (MAP4K4, Homo sapiens, UniProt O95819) | kinase binding | KINOMEscan | DMSO control | 92% |
| cAMP-dependent protein kinase catalytic subunit beta (PRKACB, Homo sapiens, UniProt P22694) | binding | competition with immobilised ligand | – | 100% |
| Cyclin-dependent kinase 7 (CDK7, Homo sapiens, UniProt P50613) | binding | competition with immobilised ligand | – | 95% |
| Serine/threonine-protein kinase 25 (STK25, Homo sapiens, UniProt O00506) | kinase binding | KINOMEscan | DMSO control | 85% |
| SRSF protein kinase 2 (SRPK2, Homo sapiens, UniProt P78362) | kinase binding | KINOMEscan | DMSO control | 91% |
| Hepatocyte growth factor receptor (MET, Homo sapiens, UniProt P08581) | binding | competition with immobilised ligand | – | 81% |
| Wee1-like protein kinase 2 (WEE2, Homo sapiens, UniProt P0C1S8) | binding | competition with immobilised ligand | – | 100% |

Series 3
SMILES: COc1cc(C(=O)OCCCN2CCCN(CCCOC(=O)c3cc(OC)c(OC)c(OCc4ccc([N+](=O)[O-])cc4)c3)CC2)cc(OC)c1OC
| test | test system | conditions | paw withdrawal threshold |
| --- | --- | --- | --- |
| mechanical pain, von Frey test | mouse, STZ diabetic neuropathy | intravenous, 30 mg/kg, 24 h post-dose, first injection, day 8 | 0.32 g and 0.08 g and 0.29 g and 0.17 g and 0.03 g |
| von Frey test | mouse, CFA inflammatory pain | subcutaneous, 10 mg/kg, 3 h post-dose, second injection, day 3 | 0.65 g and 0.4 g and 0.51 g and 0.29 g |
| mechanical pain, von Frey test | mouse, STZ diabetic neuropathy | intravenous, 30 mg/kg, 5 h post-dose, first injection, day 8 | 0.1 g and 0.2 g and 0.44 g and 0.05 g and 0.36 g |
| – | mice, STZ diabetic neuropathy | intrathecal, 10 nmol, 3 h, with: DPCPX 10 nmol, 30 min before | 0.4 g and 0.65 g and 0.08 g and 0.02 g and 0.06 g and 0.59 g |
| von Frey test | mouse, CFA inflammatory pain | intravenous, dose not given, 1 h post-dose, first injection, day 1 | 0.51 g and 0.75 g and 0.44 g and 0.4 g and 0.32 g and 0.59 g |
| mechanical pain, von Frey test | mouse, STZ diabetic neuropathy | intravenous, 30 mg/kg, 24 h post-dose, third injection | 0.51 g and 0.32 g and 0.4 g |
| mechanical pain, von Frey test | mouse, STZ diabetic neuropathy | intravenous, 30 mg/kg, 3 h post-dose, third injection | 0.4 g and 0.98 g and 0.51 g and 0.44 g |
| mechanical pain, von Frey test | mouse, STZ diabetic neuropathy | intravenous, 30 mg/kg, 5 h post-dose, third injection | 0.27 g and 0.4 g and 0.65 g and 0.44 g |
| von Frey test | mouse, CFA inflammatory pain | intravenous, dose not given, baseline before CFA | 1.56 g and 1.3 g and 0.98 g and 0.75 g |
| von Frey test | mouse, CFA inflammatory pain | subcutaneous, 10 mg/kg, 3 h post-dose, third injection, day 5 | 0.65 g and 0.51 g and 0.29 g and 0.4 g |

Series 4 — technique: CellTiter-Glo
SMILES: CCN1CCN(Cc2ccc(COc3c(-c4c(C)c(F)cc5[nH]ncc45)c(C4CC4)cc4c(N5C[C@@H]6C[C@H]5CN6)nc(OC5CCOCC5)nc34)cc2)C(=O)C1
| cell line | tested at | time | relative to | viability |
| --- | --- | --- | --- | --- |
| A-375 (KRAS wild type) | 3 µM | 6 days | DMSO | 65.9% and 72.4% and 78.3% and 65.8% |
| AsPC-1 (KRAS G12D) | 1 µM | – | – | 16.3% and 19.4% and 18.7% and 17.6% |
| AsPC-1 (KRAS G12D) | 300 pM | – | – | 78.2% and 80.3% and 79.5% and 91.4% |
| A-375 (KRAS wild type) | 10 µM | 6 days | DMSO | 0.3% and 0.1% |
| A-375 (KRAS wild type) | 300 nM | 6 days | DMSO | 95.1% and 98.4% and 106% and 108% |
| AsPC-1 (KRAS G12D) | 3 µM | – | – | 2.39% and 2.86% and 3.16% and 1.83% and 2.26% and 2.56% and 3.14% and 3.54% |

Further values, each from its own experiment
| Structure (SMILES) | technique | sample | pH | quantity | value |
| --- | --- | --- | --- | --- | --- |
| CCN1/C(=C/C=C2\CCCC(/C=C/C3=[N+](CC)c4ccccc4C3(C)C)=C2NCCCCCCCCN2CCC(Nc3nc4ccccc4n3Cc3ccc(F)cc3)CC2)C(C)(C)c2ccccc21 | dynamic light scattering | PBS | pH 7.4 | particle diameter | 524 nm |

Excerpt of the above (series 1):
| target | temperature | SYPRO Orange fluorescence [a.u.] |
| --- | --- | --- |
| DCAF1 | 49.2 °C | 14000 |
| DCAF1 | 50.2 °C | 14700 |
| WDR5 | 84.21 °C | 37400 |
| DCAF1 | 93.61 °C | 31400 |
